Assay results pooled from the literature.
Every numbered part comes from another study and shows a few of its results, in no order.

Study 1 — method: universal PBM; molecule type: double-stranded DNA, one strand shown; medium: in vitro; concentration: not given; direction: higher = stronger binding
Target: Sal-like protein 4, full length isoform B (SALL4, Homo sapiens, UniProt Q9UJQ4-2, residues 1-616)
Setting: 8-mer, flanks averaged, mean of replicates
The E-score of `CTAATGTC` is reported as 0.0238.
The E-score of `AACCGCTG` is reported as -0.242.
The E-score of `AATAGAGG` is reported as 0.0629.
For `AGCCTCAT`, the E-score was -0.00589.
`ACCACCTG` gave an E-score of -0.236.
`GGAAAGAA` has an E-score of -0.0135.
For `GAGTCCCA`, the E-score was -0.194.
The E-score of `CATTGAGC` is reported as -0.0614.

Study 2 — method: protein-binding microarray; molecule type: double-stranded DNA, one strand shown; medium: in vitro; concentration: 250 nM; setting: 60-bp whole probe; with: salmon DNA 0.4 mg/ml; relative to: random background probes; direction: higher = stronger binding; shared flanks, not repeated: GCCTAGCAC … GTCTTGATTCGCTTGACGCTGCTG
Target: Interferon regulatory factor 7, full length, phosphomimetic (IRF7, Homo sapiens, UniProt Q92985, residues 1-503, S101K/S471D/S472D/S475D/S476D/S477D/S483D/S484D/S487D)
Target sequence (chain): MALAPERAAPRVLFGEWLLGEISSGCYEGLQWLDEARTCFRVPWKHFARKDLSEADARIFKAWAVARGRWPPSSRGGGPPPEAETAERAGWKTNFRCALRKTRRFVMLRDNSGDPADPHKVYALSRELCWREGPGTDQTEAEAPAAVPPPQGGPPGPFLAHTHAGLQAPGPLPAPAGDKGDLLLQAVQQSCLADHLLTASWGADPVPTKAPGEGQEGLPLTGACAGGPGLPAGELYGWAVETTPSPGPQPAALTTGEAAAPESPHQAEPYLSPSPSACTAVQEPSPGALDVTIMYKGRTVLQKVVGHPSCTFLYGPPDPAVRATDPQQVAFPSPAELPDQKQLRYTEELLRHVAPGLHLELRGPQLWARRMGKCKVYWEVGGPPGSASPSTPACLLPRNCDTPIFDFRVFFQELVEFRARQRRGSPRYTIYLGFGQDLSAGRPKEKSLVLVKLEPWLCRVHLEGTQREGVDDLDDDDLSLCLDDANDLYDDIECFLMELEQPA
With `TTAGATTCCGGTTTCGATTAGTGCTAG` the log fluorescence was 10.8 z-score.
`TTAGACCTGAGTTTCGATTAGTGCTAG` gave a log fluorescence of 7.6 z-score.
The log fluorescence of `TTAGATCTCACTTTCGATTAGTGCTAG` is reported as 3.08 z-score.
`GAAGAAATTTAATAGTCACTGTGCTAG` gave a log fluorescence of -0.51 z-score.
For `GACGGTTTCGTCTATCGGGACGTGCTA`, the log fluorescence was 4.23 z-score.
The log fluorescence of `GACGGCTTCCTTTCCCTGACGTGCTAG` is reported as 0.102 z-score.
For `AATGTATAACGCCATTAGCTGTGCTAG`, the log fluorescence was -0.0844 z-score.

Study 3 — method: protein binding microarray; molecule type: double-stranded DNA, one strand shown; medium: in vitro; concentration: not given; relative to: not given; direction: higher = stronger binding
Target: Histone acetyltransferase KAT6A, both winged helices, GST fusion (KAT6A, Homo sapiens, UniProt Q92794, residues 1-181)
Setting: 8-mer, flanks averaged, mean of 2 arrays, mostly near background
Target sequence (chain): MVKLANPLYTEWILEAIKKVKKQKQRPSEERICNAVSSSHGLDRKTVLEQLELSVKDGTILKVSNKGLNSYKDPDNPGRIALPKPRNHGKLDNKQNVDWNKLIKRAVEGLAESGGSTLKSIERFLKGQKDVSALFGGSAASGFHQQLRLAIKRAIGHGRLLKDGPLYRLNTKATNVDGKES
With `CCTAAGCC` the E-score was -0.122.
`CTAACTAC` gave an E-score of -0.0375.
`CTAGAACA` gave an E-score of 0.0786.
With `AGGTGAAA` the E-score was -0.108.
`CGGATTCA` has an E-score of 0.0541.
`CCTCTTGC` has an E-score of -0.0828.
For `CTGGTGCC`, the E-score was -0.0647.
For `CAACAGGG`, the E-score was -0.244.
`ATCAAAAA` has an E-score of -0.143.
For `ATTGACCA`, the E-score was -0.255.
With `CTATAGTC` the E-score was -0.0917.
With `AGGTTCGA` the E-score was -0.21.
With `GGGTTCTA` the E-score was -0.14.
With `CACTCATA` the E-score was -0.0481.

Mixed results
`PhoQ, residues 284 288 289 292 302 303 SSCCRF` gave a fold induction of 19.4 (PhoP, residues 12 14 15 18 19 GQALL (Escherichia coli, UniProt P23836); Sort-seq, refers to: YFP reporter; E. coli; PhoQ-PhoP variant library, with: 10 µM Mg2+; relative to: high Mg2+ state, higher = stronger signaling).

For quick reference, copied from above (study 1):
For `GAGTCCCA`, the E-score was -0.194.
`ACCACCTG` gave an E-score of -0.236.
The E-score of `AACCGCTG` is reported as -0.242.
The E-score of `CATTGAGC` is reported as -0.0614.
